Published values gathered from unrelated publications.
Numbered parts are unrelated; each lists some results of a single study. Changes are numbered by the printed parent chain.

Sample 1
Target: Myc proto-oncogene protein, bHLH-zipper, MAX partner unstated (MYC, Homo sapiens, UniProt P01106, residues 368-449)
Sequence of UniProt P01106 (368-449, looked up): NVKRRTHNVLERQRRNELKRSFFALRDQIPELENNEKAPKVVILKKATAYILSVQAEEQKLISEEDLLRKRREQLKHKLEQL
Method: protein-binding microarray
Form: double-stranded DNA, one strand shown
Matrix: in vitro
Tested at: not given
Notes: k-mer, scored over probes, only values ≥0.25
Reading: higher = stronger binding
| Strand | E-score |
| --- | --- |
| CGTGTCTA | 0.357 |
| GCCACCAC | 0.287 |
| CACGCCTG | 0.347 |
| ATATGGCA | 0.296 |
| ACGTCATG | 0.259 |
| CGTGTGGC | 0.394 |
| CATGCTAC | 0.382 |
| GGTGTGGA | 0.275 |
| CCGCACCG | 0.284 |
| CGAGGCAC | 0.305 |
| CATGCACG | 0.414 |
| CAACCCAC | 0.251 |
| AAGCGTGC | 0.401 |
| CGCCTCGC | 0.251 |
| CATATGGC | 0.393 |
| AGGCACAT | 0.38 |
| ACGAGGCG | 0.42 |

Sample 2
Target: RING finger protein unkempt homolog, zinc fingers 1-6, SBP tag (UNK, Homo sapiens, UniProt Q9C0B0, residues 30-357)
Sequence of UniProt Q9C0B0 (30-357, looked up): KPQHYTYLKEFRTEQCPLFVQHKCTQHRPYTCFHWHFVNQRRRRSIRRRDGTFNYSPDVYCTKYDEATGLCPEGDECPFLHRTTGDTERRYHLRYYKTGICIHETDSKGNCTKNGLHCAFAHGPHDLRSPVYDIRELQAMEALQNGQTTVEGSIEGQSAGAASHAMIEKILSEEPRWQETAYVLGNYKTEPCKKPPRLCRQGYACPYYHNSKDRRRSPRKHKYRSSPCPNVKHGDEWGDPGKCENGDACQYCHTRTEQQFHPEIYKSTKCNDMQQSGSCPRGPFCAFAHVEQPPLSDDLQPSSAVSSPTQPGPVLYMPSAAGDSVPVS
Method: RNA Bind-n-Seq
Form: RNA
Matrix: in vitro
Tested at: 100 nM
Notes: RNA with constant flanks, vertebrate orthologous sites, ends assumed
Baseline: input RNA pool
Reading: higher = stronger binding
Constant ends, left off below: GGGAGUUCUACAGUCCGACGAUC … CAACAGAGGAUUGAGCAUCA
| Strand | bound/input enrichment |
| --- | --- |
| CAUUUUUACAAUCUUCUACUUAAACUGGUAUUUUCAAAGAAUAGAAUUUUUUUUUUACCGUUUAGUAUCUGGUUUCUACAUGGAAGACUAAACUCAUGCUUAUAGCUAAAUGUGGUCUUU | 0.245 ratio |
| ACCGAGGGACACCCAGCGGGGCGAGGAGCCACCCAGGGCAGCGAAGGCGGGGCGGGAUCGCUGCCGCCUGCACCGGCCGGGCUGCGCUCGCUGCCCUGUGCCCCCCUCUGGUGCAAAACC | 1.23 ratio |
| UAAAUAAUCAGUUGAAUUGUAUUCUGAUCAAGUGUAACAUUGUGUAGCUUUUGUAUAAAACCAAGAAUGGGAGAAAUGGUCCAAAUAUCGGCUUUCUUGCUUUAAGAUCACCAGUGUCAG | 0.534 ratio |
| GCCUCCAAAAGGCAGAUUCAGGGAGAGAUAGACUUCAGGGAAUAUAAAUUUAUUUAAUAAUAAUGAUCUGAAAUAAUAAAUUUGGUAUAAUUGGAUUGUGGGGGAGCAGUGAUGAUGAUU | 0.904 ratio |
| UUACAGUCAUUGAUGGACUCUAUUUUUUUAUUAUUCCUUGGACCUUGGUCGUUUUUAUACUAGCAAAAAAAAUGUCUUGUUUUGAUUUUUUUUUUGUUUUUUGGGGGGGAGGGCGGCGGG | 1.54 ratio |
| CAUGUCCUUACUCCUGUGACCUUCAAACAUGCACAGUGCUCAUCUUUCCCCAGAUGAUUCUAGUAAUUGCCUAGAAAUAUUCUCGUACCUGUUAUUUAUCAAUUUUUCCCAGUAUUUUUA | 1.86 ratio |
| CUCCACUACUCCUGGGUGCGUGACUCCAGUGAAGCAUCCACCAGUGCUGCAAGGGGUCCAGAGUAUUGUUUUUUUUGCUGUUUCAGUCCCCAGUGCCUACCAGCAGAAGUGGCAGUAGAU | 0.554 ratio |
| AUCUCUCAUUUUAUAUGUCCAAAAAUGGCUUUGAAUUUUAAGCAAUUACUAGUUUUAAAUUAGCUCUGCCCUCAUGAAGUAUUAUUAUAAUUCACCAUAAACAGCUAUCUGUCUGAAUUA | 1.36 ratio |

Sample 3
Target: CCNF, cyclin fold, Cln2 fusion (human)
Method: yeast growth competition, sequencing
Matrix: yeast
Notes: strong parent motif
Baseline: not given
Reading: higher = stronger binding
Starting sequence: WEE1 docking peptide (human); HKTFRKLRLFDTP
| Variant | normalised enrichment score |
| --- | --- |
| R5M | 1.87 |
| F4A | 5.17 |
| F4W | 3.29 |
| P13K | 3.33 |
| F10E | 1.46 |
| K6H | 1.69 |
| F4P | 2.05 |
| K2C | 2.15 |
| L9Q | 1.93 |
| T3H | 2.3 |
| L9A | 1.63 |
| F4Q | 3.77 |
| D11Q | 3.59 |
| H1A | 2.1 |
| F10D | 2.15 |
| L9C | 1.25 |
| T12H | 1.94 |
| T12Y | 0.957 |
| K6G | 1.81 |
| K2P | 3.06 |
| R8L | 4.59 |
| P13G | 1.97 |
| R5C | 1.2 |
| H1S | 2.85 |
| K2M | 1.56 |

Sample 4
Substance: PhoQ, residues 284 288 289 292 302 303 ASVMEA
Method: Sort-seq
Measured: YFP reporter
Matrix: E. coli
Notes: PhoQ-PhoP variant library
Together with: 10 µM Mg2+
Baseline: high Mg2+ state
Reading: higher = stronger signaling
| target | fold induction |
| --- | --- |
| PhoP, residues 12 14 15 18 19 NYFRM (Escherichia coli, UniProt P23836) | 19.2 |
| PhoP, residues 12 14 15 18 19 QYFSL (Escherichia coli, UniProt P23836) | 24 |
| PhoP, residues 12 14 15 18 19 TQALL (Escherichia coli, UniProt P23836) | 6.19 |

Repeated from above (sample 3):
| Variant | normalised enrichment score |
| --- | --- |
| H1A | 2.1 |
| K6G | 1.81 |
| L9Q | 1.93 |
| F4P | 2.05 |
| F4W | 3.29 |
| F10D | 2.15 |
| P13K | 3.33 |
| T12H | 1.94 |
